{"data": "Measured values of several laboratories", "note": "Parts stem from different laboratories: compare values within a part only. Positions count from the first letter of the parent shown."}
{"data": "Set 1", "target": "CCNA1, cyclin fold, Cln2 fusion (human)", "method": "yeast growth competition, sequencing", "matrix": "yeast", "notes": "weak parent motif", "relative to": "not given", "direction": "higher = stronger binding", "parent": "GMNC docking peptide (human); KNAKRNLSSEFAN"}
{"Variant": "KNAKRNLSSEQAN [F11Q]", "normalised enrichment score": 0.288}
{"Variant": "KNAKRNLSSEWAN [F11W]", "normalised enrichment score": 0.449}
{"Variant": "KNMKRNLSSEFAN [A3M]", "normalised enrichment score": 0.257}
{"Variant": "KNVKRNLSSEFAN [A3V]", "normalised enrichment score": 1.19}
{"Variant": "KNAKRNLSSEFMN [A12M]", "normalised enrichment score": 0.233}
{"Variant": "KNAKRNRSSEFAN [L7R]", "normalised enrichment score": 0.256}
{"Variant": "KNAKRNLSSEFQN [A12Q]", "normalised enrichment score": 0.52}
{"Variant": "KNAKRHLSSEFAN [N6H]", "normalised enrichment score": -0.424}
{"Variant": "KNAKRNLSSFFAN [E10F]", "normalised enrichment score": -0.22}
{"Variant": "KNAKRNLSSPFAN [E10P]", "normalised enrichment score": 0.017}
{"Variant": "KNAKRWLSSEFAN [N6W]", "normalised enrichment score": -0.152}
{"Variant": "KNAKRNLSTEFAN [S9T]", "normalised enrichment score": 0.704}
{"Variant": "KNAKRNLSSYFAN [E10Y]", "normalised enrichment score": -0.277}
{"Variant": "KNAGRNLSSEFAN [K4G]", "normalised enrichment score": 0.549}
{"Variant": "KNAKRNLPSEFAN [S8P]", "normalised enrichment score": 0.0256}
{"data": "Set 2", "target": "RNA binding protein fox-1 homolog 2, RRM domain, GST-SBP tag (RBFOX2, Homo sapiens, UniProt O43251-10, residues 100-194)", "method": "RNA Bind-n-Seq", "molecule type": "RNA", "matrix": "in vitro", "tested at": "365 nM", "notes": "natural RNA segment, single round, ends assumed", "relative to": "no-protein control", "direction": "higher = stronger binding", "shared flanks, not repeated": "GGGAGUUCUACAGUCCGACGAUC … UGGAAUUCUCGGGUGCCAA", "Residues (chain)": "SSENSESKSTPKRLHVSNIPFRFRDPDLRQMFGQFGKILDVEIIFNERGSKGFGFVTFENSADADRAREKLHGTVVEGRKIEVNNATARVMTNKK"}
{"Strand": "UUAGUUAGAAAUACAGGCUACAGUGUUUGGUCAGAAUUUAUUCGAAUGUCUUUAUUUUUAAUACCAACAUCAGCAUAAAUCUAUUUUUGCUAGUAGAUCAAAGCUAUUUU", "RBNS enrichment (R)": 0.767}
{"Strand": "CCUCCACAGGGUUCCUGUGUUUCACAUUUACGAUAUAAAUUGAUACCCAUCUUCAGCUGAGGUUGUUAUGGGGGGCUGGAAUCACGUGUUUUUUAAACCUGAUAUUUUCA", "RBNS enrichment (R)": 0.267}
{"Strand": "GGCAGUGACAUAUGGCCUCAGGCUGGACACCGAGACAGGUGGAAAUACCCUGUCCAUUGGUAGAUGUCUUGCUUCUUCUGGUUCAGGCAGGGAAAACACUUGGACUCUUC", "RBNS enrichment (R)": 0.446}
{"Strand": "UCAUGAUGUGUGCGUGUGGUUUGUUCCUUCUCCUUGCCGGGAAGUAUUUCAUUGCAUGGGCGUACUACUCUGCUUCUUUAUUUUUACACUGAGCCUUUCGCCCUGGAAGU", "RBNS enrichment (R)": 1.98}
{"Strand": "CCAAAGAGUUUUCUGUGCAAAAUCUUGAGAAUCAAUCAAUAAAGAAAGAUGGAAGGAAGGGAGAAAUUGGAAUGUUUUAACUGCAGCCCUCAGAACUUUAGUAACAGCAC", "RBNS enrichment (R)": 0.446}
{"Strand": "GCCCCUGGCAGACAUAGCUGCUUCAGUGCCCCUUUUCUCUCUGCUAGAUGGAUGUUGAUGCACUGGAGGUCUUUUAGCCUGCCCUUGCAUGGCGCCUGCUGGAGGAGGAG", "RBNS enrichment (R)": 0.514}
{"Strand": "CAAUGGAUUACCAUCUUUAUUGCUGUAAUGUGUUAAGCAUUAUAUGCUAGUAGAAUCUAGUUUAAUUGUUUCAGGUGGAAAGUAUUCUUUGAGUUUCCAUAUUGAAUGUG", "RBNS enrichment (R)": 0.39}
{"Strand": "AACCCCUGAGGAAGAUGGGGGCAAGAAGAUCACGCUCCCCGCCUGUUCCCCCGCCGCUUUUCUCCUCUUUCCUCUCUUUGUUCUCAGCUCCCCCUGUCCCCUCAGCUCCA", "RBNS enrichment (R)": 1.11}
{"data": "Set 3", "target": "Histone acetyltransferase KAT6A, both winged helices, GST fusion (KAT6A, Homo sapiens, UniProt Q92794, residues 1-181)", "method": "protein binding microarray", "molecule type": "double-stranded DNA, one strand shown", "matrix": "in vitro", "tested at": "not given", "notes": "8-mer, flanks averaged, mean of 2 arrays, mostly near background", "relative to": "not given", "direction": "higher = stronger binding", "Target sequence (chain)": "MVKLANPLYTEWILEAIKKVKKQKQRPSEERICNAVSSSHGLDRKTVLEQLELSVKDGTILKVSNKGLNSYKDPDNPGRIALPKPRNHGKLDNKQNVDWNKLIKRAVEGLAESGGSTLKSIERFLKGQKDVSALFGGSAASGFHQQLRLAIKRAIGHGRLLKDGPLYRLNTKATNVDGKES"}
{"Strand": "CCTGGAAG", "E-score": -0.166}
{"Strand": "AATCAATC", "E-score": 0.00578}
{"Strand": "CTTTCAGC", "E-score": 0.123}
{"Strand": "CAACTAAG", "E-score": -0.157}
{"Strand": "ACCCGCAA", "E-score": 0.188}
{"Strand": "GGTCTAAA", "E-score": -0.0877}
{"Strand": "CGGTTGAC", "E-score": 0.155}
{"Strand": "ACCCACCA", "E-score": -0.246}
{"Strand": "CGACGATA", "E-score": 0.0517}
{"Strand": "AATTGTAG", "E-score": -0.0316}
{"Strand": "AGCACAAA", "E-score": -0.0826}
{"Strand": "ACTTCCAT", "E-score": -0.0214}
{"Strand": "CAAGCGTG", "E-score": 0.0829}
{"Strand": "CGATCAAA", "E-score": -0.0723}
{"Strand": "GGACAATA", "E-score": 0.0114}
{"Strand": "TAATGCCA", "E-score": -0.126}
{"Strand": "GGGTGTCA", "E-score": -0.0563}
{"Strand": "ATGAGCAA", "E-score": -0.14}
{"data": "Single results of other studies"}
{"Molecule": "PhoQ, residues 284 288 289 292 302 303 AANNSF", "target": "PhoP, residues 12 14 15 18 19 AQCLL (Escherichia coli, UniProt P23836)", "test": "Sort-seq, measured: YFP reporter", "test system": "E. coli", "setting": "PhoQ-PhoP variant library, with: 10 µM Mg2+", "how to read": "relative to: high Mg2+ state, higher = stronger signaling", "endpoint": "fold induction", "value": 2.89}
{"note": "For quick reference, copied from above (set 2):"}
{"Strand": "UUAGUUAGAAAUACAGGCUACAGUGUUUGGUCAGAAUUUAUUCGAAUGUCUUUAUUUUUAAUACCAACAUCAGCAUAAAUCUAUUUUUGCUAGUAGAUCAAAGCUAUUUU", "RBNS enrichment (R)": 0.767}
{"Strand": "CCUCCACAGGGUUCCUGUGUUUCACAUUUACGAUAUAAAUUGAUACCCAUCUUCAGCUGAGGUUGUUAUGGGGGGCUGGAAUCACGUGUUUUUUAAACCUGAUAUUUUCA", "RBNS enrichment (R)": 0.267}
{"Strand": "GGCAGUGACAUAUGGCCUCAGGCUGGACACCGAGACAGGUGGAAAUACCCUGUCCAUUGGUAGAUGUCUUGCUUCUUCUGGUUCAGGCAGGGAAAACACUUGGACUCUUC", "RBNS enrichment (R)": 0.446}
{"Strand": "UCAUGAUGUGUGCGUGUGGUUUGUUCCUUCUCCUUGCCGGGAAGUAUUUCAUUGCAUGGGCGUACUACUCUGCUUCUUUAUUUUUACACUGAGCCUUUCGCCCUGGAAGU", "RBNS enrichment (R)": 1.98}
{"Strand": "CCAAAGAGUUUUCUGUGCAAAAUCUUGAGAAUCAAUCAAUAAAGAAAGAUGGAAGGAAGGGAGAAAUUGGAAUGUUUUAACUGCAGCCCUCAGAACUUUAGUAACAGCAC", "RBNS enrichment (R)": 0.446}
